{"data": "Experimental data gathered from unrelated publications", "note": "Lines come from different studies, so protocols differ. Several values in a cell are separate wells, animals, samples, runs or records. Numbers after ± are the reported error."}
{"SMILES": "Cc1cn(-c2cc(NC(=O)c3cc(C#Cc4cnc5c(Nc6cnn(C)c6)cccn45)c(C)cc3F)cc(C(C)(C)C#N)c2)cn1", "assay": "platelet aggregation", "test system": "platelet-rich plasma", "setting": "0.1 µM, DMSO 130.6, added: collagen 2 mg/mL", "measurement": "lag time", "value": "156 s"}
{"SMILES": "O=C(N/N=C/c1ccc(C[n+]2ccccc2)cc1)C(=O)N/N=C/c1ccc(C[n+]2ccccc2)cc1", "target or system": "hp2 hairpin duplex DNA", "assay": "FRET melting", "setting": "1 µM, added: ds26 10 µM", "measurement": "ΔTm", "value": "0.7 ± 0.2 °C"}
{"SMILES": "CC(=O)[O-].O.O.O.O.[Co+2].[O-]c1ccc(Br)cc1C=NCCN1CCOCC1", "assay": "nitric oxide scavenging", "setting": "40 µM", "measurement": "inhibition", "value": "12.8%"}
{"SMILES": "CC(C)C[C@H](NC(=O)[C@H](CC(=O)O)NC(=O)CNC(=O)[C@@H](N)CCCNC(=N)N)C(=O)N[C@@H](C)C(=O)N[C@H](C(=O)N[C@@H](CC(C)C)C(=O)N[C@@H](CCCNC(=N)N)C(=O)N[C@@H](CCC(N)=O)C(=O)N[C@@H](CC(C)C)C(=O)N[C@@H](C)C(=O)N[C@@H](CCC(N)=O)C(=O)N[C@@H](CCC(=O)O)C(=O)N[C@@H](CC(=O)O)C(=O)NCC(=O)N[C@H](C(=O)N[C@H](C(=O)NCC(=O)N[C@H](C(=O)N[C@@H](CCCNC(=N)N)C(=O)NCCOCCOCCOCCOCCOCCOCCOCCOCCOCCOCCOCCOCCC(=O)N[C@@H](CS)C(N)=O)C(C)C)C(C)C)C(C)C)[C@@H](C)O", "assay": "ex vivo NIR imaging", "test system": "NOD/SCID mice, xenograft, H460 xenograft", "setting": "intravenous, 30 µg, 24 h", "scale": "reference: lung", "measurement": "fluorescence signal ratio", "value": "0.19 and 0.49"}
{"SMILES": "OCC1OC(n2cnc3c(NCc4ccc(Br)s4)ncnc32)C(O)C1O (stereo not shown)", "test system": "mouse", "setting": "oral, 3 mg/kg, 2 h", "measurement": "brain inosine level", "value": "increased"}
{"SMILES": "C[n+]1cc(/C=N/NC(=O)c2cccc(C(=O)N/N=C/c3cc4ccccc4[n+](C)c3)c2)cc2ccccc21", "target or system": "hp2 hairpin duplex DNA", "assay": "FRET melting", "setting": "1 µM, added: ds26 10 µM", "measurement": "ΔTm", "value": "0.7 ± 0.1 °C"}
{"SMILES": "N[C@@H](CNC(=O)N[C@@H](CS)C(=O)NCC(=O)O)C(=O)O", "test system": "mouse C57BL/6, Aβ i.c.v. model, brain", "setting": "intranasal, dose not given", "measurement": "glyoxalase 1 activity", "value": "81.8 ± 7.1 ΔOD/min/mg protein"}
{"SMILES": "COC1OC(C)C(OS(=O)(=O)O)C(OC2OC(C)C(OS(=O)(=O)O)C(OC3OC(C)C(OS(=O)(=O)O)C(OC4OC(C)C(OS(=O)(=O)O)C(OC5OC(C)C(OS(=O)(=O)O)C(OC6OC(C)C(OS(=O)(=O)O)C(OC7OC(C)C(OS(=O)(=O)O)C(OS(=O)(=O)O)C7O)C6O)C5O)C4O)C3O)C2O)C1O (stereo not shown)", "test system": "human plasma", "setting": "128 µg/mL", "measurement": "prothrombin time", "value": "15.1 ± 0.1 s"}
{"SMILES": "COC(=O)C1CN1S(=O)(=O)c1ccc2cc(C)ccc2c1 (stereo not shown)", "test system": "mouse, Lewis lung carcinoma", "setting": "ip, 100 mg/kg, 384 h", "measurement": "tumour volume", "value": "891 mm3"}
{"SMILES": "CN1CCC[C@]1(C)/C=C/S(=O)(=O)NC(=O)Nc1c2c(cc3c1CCC3)CCC2", "test system": "human, whole blood ex vivo", "setting": "50 mg twice daily, day 14, 12 h, multiple ascending dose, added: LPS and ATP", "measurement": "IL-18 inhibition", "value": "89.7%"}
{"SMILES": "COc1cc(O)ccc1CCC(c1ccc(O)cc1)c1cc2c(c(C)c1O)OC(c1ccc(O)cc1)CC2 (mixture of isomers)", "assay": "refers to: 12-HEPE", "test system": "human whole blood", "setting": "1 µM, added: A23187", "measurement": "amount", "value": "152 ± 18 pg/mL blood"}
{"SMILES": "CCC(=O)N[C@@H](C)C(=O)OCC(=O)N[C@@H](C)C(=O)O", "test system": "water", "setting": "pH 3, 37 °C", "measurement": "chain scission rate constant", "value": "0.0005 h⁻¹"}
{"SMILES": "COC1OC(C)C(O)C(OC2OC(C)C(O)C(OC3OC(C)C(O)C(OC4OC(C)C(O)C(OC5OC(C)C(O)C(OC6OC(C)C(O)C(OS(=O)(=O)O)C6OS(=O)(=O)O)C5OS(=O)(=O)O)C4OS(=O)(=O)O)C3OS(=O)(=O)O)C2OS(=O)(=O)O)C1OS(=O)(=O)O (stereo not shown)", "test system": "human plasma", "setting": "128 µg/mL", "measurement": "prothrombin time", "value": "14.8 ± 0.3 s"}
{"SMILES": "COC1CN([C@H]2CC[C@H]([C@@]3(C)Oc4c(Cl)cc(C(=O)NCc5c(SC)cc(C)[nH]c5=O)c(C)c4O3)CC2)C1", "assay": "RNA-seq, refers to: N4BP3 mouse homolog", "test system": "mouse, HT-1376 xenograft, whole blood", "setting": "dose not given", "scale": "reference: vehicle", "measurement": "log2 fold change", "value": 0.411}
{"SMILES": "COC1OC(C)C(OS(=O)(=O)O)C(OC2OC(C)C(OS(=O)(=O)O)C(OC3OC(C)C(OS(=O)(=O)O)C(OC4OC(C)C(OS(=O)(=O)O)C(OS(=O)(=O)O)C4OS(=O)(=O)O)C3OS(=O)(=O)O)C2OS(=O)(=O)O)C1OS(=O)(=O)O (stereo not shown)", "test system": "human plasma", "setting": "128 µg/mL", "scale": "reference: control", "measurement": "prothrombin time prolongation", "value": "0.99 fold"}
{"SMILES": "CC(C)(C)NCC(SS(=O)(=O)O)c1ccccc1 (stereo not shown)", "test system": "Swiss Webster mice, Schistosoma mansoni-infected", "setting": "100 mg/kg x 4 doses from day 42 post-infection, perfusion day 56 post-infection", "measurement": "spleen weight", "value": "0.6 g"}
{"SMILES": "CC(=O)N1c2ccc(-c3ccc(CNC(=O)c4cn5cc(-c6cnc(N)nc6)nc(N6CCOCC6)c5n4)cc3)cc2CC[C@@H]1C", "test system": "mice transplanted Eµ-Myc lymphoma", "setting": "45 mg/kg, 15 d dosing", "measurement": "sustained complete lymphoma clearance", "value": "90%"}
{"SMILES": "COC1OC(C)C(O)C(OC2OC(C)C(O)C(OC3OC(C)C(O)C(OS(=O)(=O)O)C3OS(=O)(=O)O)C2OS(=O)(=O)O)C1OS(=O)(=O)O (stereo not shown)", "test system": "human plasma", "setting": "128 µg/mL", "scale": "reference: control", "measurement": "prothrombin time prolongation", "value": "1 fold"}
{"SMILES": "NC[C@@H](C(=O)Nc1ccc(-c2cn[nH]c2)cc1)c1ccccc1", "assay": "tonometry", "test system": "NZW rabbit, magnetic bead-induced ocular hypertension", "setting": "ocular, 0.1%, 32 h", "measurement": "IOP", "value": "29.1 mmHg"}
{"SMILES": "CN1CCCNC(=O)c2cccc(c2)C(=O)NCCCN(C)CCCNc2cccc3c2C(=O)c2cccc(c2C3=O)NCCC1", "test system": "KSN/Slc nude mice, SAS xenograft", "setting": "dose not given, day 0, group mean", "measurement": "tumour volume", "value": "71.7 mm3"}
{"SMILES": "COC1OC(C)C(O)C(OC2OC(C)C(O)C(OS(=O)(=O)O)C2OS(=O)(=O)O)C1OS(=O)(=O)O (stereo not shown)", "test system": "human plasma", "setting": "128 µg/mL", "scale": "reference: control", "measurement": "prothrombin time prolongation", "value": "1.02 fold"}
{"SMILES": "COc1cc(/C=C2\\CNC/C(=C\\c3cc(Cl)c(O)c(OC)c3)C2=O)cc(Cl)c1O", "assay": "ABTS scavenging", "setting": "20 min", "measurement": "IC50", "value": "45 µg/mL"}
{"SMILES": "COC1OC(C)C(OC2OC(C)C(O)C(OC3OC(C)C(O)C(OS(=O)(=O)O)C3OS(=O)(=O)O)C2OS(=O)(=O)O)C(OS(=O)(=O)O)C1OS(=O)(=O)O (stereo not shown)", "test system": "human plasma", "setting": "128 µg/mL", "measurement": "prothrombin time", "value": "15.2 ± 0.4 s"}
{"SMILES": "CN(C)Cc1nc(Nc2ccc(-c3cnc4cc(F)ccn34)c3c2C(=O)NC3)ccc1C1CCOC1 (stereo not shown)", "test system": "mouse EMT6 syngeneic tumour", "setting": "oral, 75 mg/kg once daily", "scale": "reference: vehicle", "measurement": "circulating IFN-γ, IL-2, IgG", "value": "increased"}
{"SMILES": "COC1OC(C)C(OC2OC(C)C(OS(=O)(=O)O)C(OC3OC(C)C(OS(=O)(=O)O)C(OS(=O)(=O)O)C3OS(=O)(=O)O)C2OS(=O)(=O)O)C(OS(=O)(=O)O)C1OS(=O)(=O)O (stereo not shown)", "test system": "human plasma", "setting": "128 µg/mL", "scale": "reference: control", "measurement": "prothrombin time prolongation", "value": "1.01 fold"}
{"SMILES": "COc1ccccc1C1NCCc2cc(O)c(O)cc21 (stereo not shown)", "assay": "ABTS scavenging", "setting": "10 min, dark", "measurement": "IC50", "value": "9.62 µM"}
{"SMILES": "COC1OC(C)C(OS(=O)(=O)O)C(OC2OC(C)C(OS(=O)(=O)O)C(OS(=O)(=O)O)C2O)C1O (stereo not shown)", "test system": "human plasma", "setting": "128 µg/mL", "measurement": "prothrombin time", "value": "14.4 ± 0.4 s"}
{"SMILES": "CC(C)n1nc(-c2cc3cc(O)ccc3[nH]2)c2c(N)ncnc21", "assay": "AlphaScreen signal, AlphaScreen counter screen", "test system": "His6 peptide without bromodomain", "setting": "50 µM, assay interference check", "measurement": "inhibition", "value": "29.8%"}
{"note": "Some of these lines once more:"}
{"SMILES": "O=C(N/N=C/c1ccc(C[n+]2ccccc2)cc1)C(=O)N/N=C/c1ccc(C[n+]2ccccc2)cc1", "target or system": "hp2 hairpin duplex DNA", "assay": "FRET melting", "setting": "1 µM, added: ds26 10 µM", "measurement": "ΔTm", "value": "0.7 ± 0.2 °C"}
{"SMILES": "COC1CN([C@H]2CC[C@H]([C@@]3(C)Oc4c(Cl)cc(C(=O)NCc5c(SC)cc(C)[nH]c5=O)c(C)c4O3)CC2)C1", "assay": "RNA-seq, refers to: N4BP3 mouse homolog", "test system": "mouse, HT-1376 xenograft, whole blood", "setting": "dose not given", "scale": "reference: vehicle", "measurement": "log2 fold change", "value": 0.411}
